Results gathered from unrelated publications.
Parts stem from different laboratories: compare values within a part only. Values joined by “and” are separate records of one study, mostly repeats; a detail may differ.
Sequence of UniProt Q13470 (whole entry, looked up): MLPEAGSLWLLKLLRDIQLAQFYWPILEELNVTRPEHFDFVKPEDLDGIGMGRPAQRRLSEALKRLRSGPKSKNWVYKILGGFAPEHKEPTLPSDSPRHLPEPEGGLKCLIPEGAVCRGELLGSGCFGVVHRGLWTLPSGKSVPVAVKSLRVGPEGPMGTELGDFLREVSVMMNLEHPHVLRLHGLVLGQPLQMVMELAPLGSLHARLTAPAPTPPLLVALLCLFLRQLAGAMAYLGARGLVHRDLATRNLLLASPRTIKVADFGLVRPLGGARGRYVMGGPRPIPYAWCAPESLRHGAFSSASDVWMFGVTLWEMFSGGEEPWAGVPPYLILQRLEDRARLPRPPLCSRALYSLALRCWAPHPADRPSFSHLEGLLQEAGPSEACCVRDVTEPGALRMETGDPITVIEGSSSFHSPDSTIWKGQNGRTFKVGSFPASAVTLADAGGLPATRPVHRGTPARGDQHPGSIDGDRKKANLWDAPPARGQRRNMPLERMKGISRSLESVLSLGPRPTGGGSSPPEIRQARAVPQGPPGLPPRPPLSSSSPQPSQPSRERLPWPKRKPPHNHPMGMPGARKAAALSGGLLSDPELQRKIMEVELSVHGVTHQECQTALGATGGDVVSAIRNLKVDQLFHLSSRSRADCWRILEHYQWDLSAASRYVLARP
Sequence of UniProt Q99558 (whole entry, looked up): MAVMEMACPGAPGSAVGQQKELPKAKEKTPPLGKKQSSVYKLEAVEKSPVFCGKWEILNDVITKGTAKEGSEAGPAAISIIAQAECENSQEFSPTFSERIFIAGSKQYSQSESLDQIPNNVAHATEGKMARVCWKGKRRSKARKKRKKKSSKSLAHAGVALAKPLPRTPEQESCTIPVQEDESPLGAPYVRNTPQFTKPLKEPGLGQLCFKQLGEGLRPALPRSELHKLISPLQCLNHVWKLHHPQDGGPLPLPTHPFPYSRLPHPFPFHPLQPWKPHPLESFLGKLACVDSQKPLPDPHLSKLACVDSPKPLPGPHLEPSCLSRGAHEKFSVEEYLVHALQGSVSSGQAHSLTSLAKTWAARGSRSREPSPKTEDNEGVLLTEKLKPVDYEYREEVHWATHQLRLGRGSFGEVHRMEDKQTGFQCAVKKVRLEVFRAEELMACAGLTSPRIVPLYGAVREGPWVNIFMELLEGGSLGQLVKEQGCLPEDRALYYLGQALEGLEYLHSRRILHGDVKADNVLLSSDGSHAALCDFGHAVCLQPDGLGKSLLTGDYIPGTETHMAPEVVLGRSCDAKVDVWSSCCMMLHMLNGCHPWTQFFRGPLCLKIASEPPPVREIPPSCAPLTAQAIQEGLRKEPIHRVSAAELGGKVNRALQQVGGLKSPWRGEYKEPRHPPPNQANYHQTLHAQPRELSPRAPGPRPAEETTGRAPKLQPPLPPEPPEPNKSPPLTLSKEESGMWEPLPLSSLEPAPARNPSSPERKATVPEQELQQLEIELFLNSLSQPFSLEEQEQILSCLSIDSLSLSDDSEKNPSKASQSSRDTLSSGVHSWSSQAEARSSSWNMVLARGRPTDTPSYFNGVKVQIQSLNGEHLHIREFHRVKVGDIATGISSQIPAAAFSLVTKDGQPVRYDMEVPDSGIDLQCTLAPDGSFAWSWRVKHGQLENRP
Sequence of UniProt Q09013 (whole entry, looked up): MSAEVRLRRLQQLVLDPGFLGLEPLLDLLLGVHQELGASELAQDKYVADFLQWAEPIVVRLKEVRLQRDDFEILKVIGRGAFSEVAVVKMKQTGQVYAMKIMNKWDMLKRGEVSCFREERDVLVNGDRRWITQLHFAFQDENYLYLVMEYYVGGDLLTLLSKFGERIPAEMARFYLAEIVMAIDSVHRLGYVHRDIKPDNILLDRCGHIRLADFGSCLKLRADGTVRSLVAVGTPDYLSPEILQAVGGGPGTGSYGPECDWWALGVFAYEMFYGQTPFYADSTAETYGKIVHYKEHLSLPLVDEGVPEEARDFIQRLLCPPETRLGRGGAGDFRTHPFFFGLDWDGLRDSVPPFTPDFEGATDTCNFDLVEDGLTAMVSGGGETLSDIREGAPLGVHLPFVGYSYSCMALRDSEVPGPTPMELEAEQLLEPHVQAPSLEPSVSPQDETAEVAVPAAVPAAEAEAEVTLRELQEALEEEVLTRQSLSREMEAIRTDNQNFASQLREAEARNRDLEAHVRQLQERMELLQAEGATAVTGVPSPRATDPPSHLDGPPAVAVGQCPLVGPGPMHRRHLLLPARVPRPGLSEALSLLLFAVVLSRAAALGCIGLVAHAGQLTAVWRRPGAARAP
Sequence of UniProt P49759 (whole entry, looked up): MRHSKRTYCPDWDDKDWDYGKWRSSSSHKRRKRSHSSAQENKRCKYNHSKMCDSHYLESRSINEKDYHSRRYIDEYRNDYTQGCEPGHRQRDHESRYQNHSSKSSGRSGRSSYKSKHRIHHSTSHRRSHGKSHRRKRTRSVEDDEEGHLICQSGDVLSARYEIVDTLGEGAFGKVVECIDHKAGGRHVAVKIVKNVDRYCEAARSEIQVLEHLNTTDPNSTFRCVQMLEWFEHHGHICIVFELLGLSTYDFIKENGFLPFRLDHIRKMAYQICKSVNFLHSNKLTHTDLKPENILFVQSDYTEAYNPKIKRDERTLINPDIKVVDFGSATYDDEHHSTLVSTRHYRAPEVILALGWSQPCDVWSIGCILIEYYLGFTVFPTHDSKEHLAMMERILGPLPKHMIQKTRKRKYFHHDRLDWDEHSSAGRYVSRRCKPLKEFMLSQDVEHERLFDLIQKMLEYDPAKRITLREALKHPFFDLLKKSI

Series 1
Structure (SMILES): C[C@@H]1CN(c2ccc(-c3cc(C(=O)NCCOCCOCCOCCOCCNC(=O)Cn4cc(-c5[nH]cc(C(=O)N[C@@H](CC(N)=O)c6ccc(F)c(Cl)c6)c5-c5ccc(Cl)cc5F)cn4)ccc3F)cc2NC(=O)c2c[nH]c(=O)cc2C(F)(F)F)C[C@H](C)N1C
Read-out: thermal unfolding
Method: differential scanning fluorimetry
Tested at: 5.5 µM
Direction: higher = more unfolded
WDR5: WD repeat-containing protein 5 (WDR5, Homo sapiens, UniProt P61964)
DCAF1: DDB1- and CUL4-associated factor 1 (DCAF1, Homo sapiens, UniProt Q9Y4B6)
Sequence of UniProt Q9Y4B6 (whole entry, looked up): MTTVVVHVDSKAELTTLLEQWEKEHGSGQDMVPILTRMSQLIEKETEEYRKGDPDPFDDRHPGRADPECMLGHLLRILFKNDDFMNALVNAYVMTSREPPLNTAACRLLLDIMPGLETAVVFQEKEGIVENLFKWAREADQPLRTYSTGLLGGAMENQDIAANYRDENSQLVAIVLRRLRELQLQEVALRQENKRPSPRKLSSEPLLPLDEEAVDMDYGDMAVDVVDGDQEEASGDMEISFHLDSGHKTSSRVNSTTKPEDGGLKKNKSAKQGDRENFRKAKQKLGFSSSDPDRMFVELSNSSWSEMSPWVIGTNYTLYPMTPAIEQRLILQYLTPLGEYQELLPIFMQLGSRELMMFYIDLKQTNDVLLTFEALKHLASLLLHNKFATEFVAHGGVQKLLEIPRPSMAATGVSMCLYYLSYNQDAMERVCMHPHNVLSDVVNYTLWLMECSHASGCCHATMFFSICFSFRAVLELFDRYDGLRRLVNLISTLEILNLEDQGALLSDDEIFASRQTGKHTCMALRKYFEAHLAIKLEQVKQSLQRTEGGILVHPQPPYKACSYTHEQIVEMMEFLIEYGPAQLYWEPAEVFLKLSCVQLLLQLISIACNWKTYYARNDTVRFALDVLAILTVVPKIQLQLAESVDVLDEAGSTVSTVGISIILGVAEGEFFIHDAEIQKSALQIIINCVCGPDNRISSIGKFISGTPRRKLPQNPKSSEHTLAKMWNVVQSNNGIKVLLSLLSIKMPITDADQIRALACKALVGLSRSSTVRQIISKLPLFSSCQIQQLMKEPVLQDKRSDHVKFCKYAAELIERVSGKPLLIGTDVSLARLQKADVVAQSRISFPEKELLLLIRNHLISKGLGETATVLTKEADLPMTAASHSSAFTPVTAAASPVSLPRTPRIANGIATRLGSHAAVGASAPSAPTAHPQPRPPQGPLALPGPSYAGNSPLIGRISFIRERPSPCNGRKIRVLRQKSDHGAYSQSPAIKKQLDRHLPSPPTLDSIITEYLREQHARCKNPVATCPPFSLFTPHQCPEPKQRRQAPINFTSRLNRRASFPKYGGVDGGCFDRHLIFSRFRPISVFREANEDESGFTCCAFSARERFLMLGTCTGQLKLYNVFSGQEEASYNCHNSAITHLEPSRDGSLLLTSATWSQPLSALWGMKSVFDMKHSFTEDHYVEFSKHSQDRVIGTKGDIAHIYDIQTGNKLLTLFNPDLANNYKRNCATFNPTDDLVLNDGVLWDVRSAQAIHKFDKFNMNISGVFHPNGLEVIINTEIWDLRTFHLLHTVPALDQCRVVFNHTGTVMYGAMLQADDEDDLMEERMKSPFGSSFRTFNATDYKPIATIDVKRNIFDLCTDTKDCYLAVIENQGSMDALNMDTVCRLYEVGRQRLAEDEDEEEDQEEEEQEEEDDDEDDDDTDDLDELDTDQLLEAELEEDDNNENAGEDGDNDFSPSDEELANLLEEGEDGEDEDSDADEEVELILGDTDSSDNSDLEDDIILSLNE
For WDR5; 26.2 °C: “SYPRO Orange fluorescence” read 14700 a.u.
The “SYPRO Orange fluorescence” was 6730 a.u. (WDR5; 69.21 °C).
The “SYPRO Orange fluorescence” was 40500 a.u. (WDR5; 92.81 °C).
For WDR5; 48.4 °C: “SYPRO Orange fluorescence” read 14500 a.u.
DCAF1; 72.21 °C — “SYPRO Orange fluorescence”: 52200 a.u.
The “SYPRO Orange fluorescence” was 11800 a.u. (DCAF1; 44 °C).
The “SYPRO Orange fluorescence” was 41500 a.u. (WDR5; 86.01 °C).
It gave 7400 a.u. for “SYPRO Orange fluorescence” (DCAF1; 25 °C).
The “SYPRO Orange fluorescence” was 11700 a.u. (WDR5; 58.21 °C).
The “SYPRO Orange fluorescence” was 43300 a.u. (DCAF1; 81.01 °C).
The “SYPRO Orange fluorescence” was 12100 a.u. (DCAF1; 44.6 °C).

Series 2
SMILES: CC[C@@]1(c2cccc(C(F)(F)F)c2)C2=C(Nc3n[nH]cc31)[C@H](F)C(C)(C)CC2=O (single isomer, unassigned)
Tested at: 1 µM
Rhodopsin kinase GRK7 (GRK7, Homo sapiens, UniProt Q8WTQ7); kinase binding, KINOMEscan; relative to: DMSO control — remaining binding: 95%.
It gave 78% for remaining binding (Serine/threonine-protein kinase TNNI3K (TNNI3K, Homo sapiens, UniProt Q59H18); kinase binding, KINOMEscan; relative to: DMSO control).
For Serine/threonine-protein kinase MARK1 (MARK1, Homo sapiens, UniProt Q9P0L2); binding, competition with immobilised ligand: remaining binding read 86%.
For Non-receptor tyrosine-protein kinase TNK1 (TNK1, Homo sapiens, UniProt Q13470); kinase binding, KINOMEscan; relative to: DMSO control: remaining binding read 100%.
It gave 100% for remaining binding (Mitogen-activated protein kinase kinase kinase 14 (MAP3K14, Homo sapiens, UniProt Q99558); binding, competition with immobilised ligand).
Serine/threonine-protein kinase 33 (STK33, Homo sapiens, UniProt Q9BYT3); kinase binding, KINOMEscan; relative to: DMSO control — remaining binding: 100%.
The remaining binding was 100% (Wee1-like protein kinase (WEE1, Homo sapiens, UniProt P30291); kinase binding, KINOMEscan; relative to: DMSO control).
Phosphatidylinositol 4-phosphate 5-kinase type-1 gamma (PIP5K1C, Homo sapiens, UniProt O60331); kinase binding, KINOMEscan; relative to: DMSO control — remaining binding: 60%.
The remaining binding was 100% (Epidermal growth factor receptor (EGFR, Homo sapiens, UniProt P00533, L861Q); kinase binding, KINOMEscan; relative to: DMSO control).
The remaining binding was 100% (Tyrosine-protein kinase receptor Tie-1 (TIE1, Homo sapiens, UniProt P35590); binding, competition with immobilised ligand).
Dual specificity protein kinase CLK1 (CLK1, Homo sapiens, UniProt P49759); kinase binding, KINOMEscan; relative to: DMSO control — remaining binding: 93%.
For eIF-2-alpha kinase GCN2 (EIF2AK4, Homo sapiens, UniProt Q9P2K8, S808G); kinase binding, KINOMEscan; relative to: DMSO control: remaining binding read 83%.
The remaining binding was 77% (Myotonin-protein kinase (DMPK, Homo sapiens, UniProt Q09013); binding, competition with immobilised ligand).
The remaining binding was 66% (Dual specificity mitogen-activated protein kinase kinase 2 (MAP2K2, Homo sapiens, UniProt P36507); kinase binding, KINOMEscan; relative to: DMSO control).
It gave 100% for remaining binding (Cyclin-dependent kinase 11A (CDK11A, Homo sapiens, UniProt Q9UQ88); kinase binding, KINOMEscan; relative to: DMSO control).
It gave 100% for remaining binding (Tyrosine-protein kinase ABL1, non-phosphorylated (ABL1, Homo sapiens, UniProt P00519, T315I); kinase binding, KINOMEscan; relative to: DMSO control).
It gave 100% for remaining binding (Serine/threonine-protein kinase Sgk2 (SGK2, Homo sapiens, UniProt Q9HBY8); binding, competition with immobilised ligand).
It gave 85% for remaining binding (Casein kinase I isoform gamma-2 (CSNK1G2, Homo sapiens, UniProt P78368); kinase binding, KINOMEscan; relative to: DMSO control).
STE20/SPS1-related proline-alanine-rich protein kinase (STK39, Homo sapiens, UniProt Q9UEW8); binding, competition with immobilised ligand — remaining binding: 99%.

Series 3
Compound: Cc1ccc(O)c(C)c1-c1cnc2[nH]c(-c3cnc(N4CCC5(CC4)CC(N4CCN(c6ccc(N[C@H]7CCC(=O)NC7=O)cc6F)CC4)CO5)nc3)cc2c1C#N (single isomer, unassigned)
PKMYT1: Membrane-associated tyrosine- and threonine-specific cdc2-inhibitory kinase (PKMYT1, Homo sapiens, UniProt Q99640)
Sequence of UniProt Q99640 (whole entry, looked up): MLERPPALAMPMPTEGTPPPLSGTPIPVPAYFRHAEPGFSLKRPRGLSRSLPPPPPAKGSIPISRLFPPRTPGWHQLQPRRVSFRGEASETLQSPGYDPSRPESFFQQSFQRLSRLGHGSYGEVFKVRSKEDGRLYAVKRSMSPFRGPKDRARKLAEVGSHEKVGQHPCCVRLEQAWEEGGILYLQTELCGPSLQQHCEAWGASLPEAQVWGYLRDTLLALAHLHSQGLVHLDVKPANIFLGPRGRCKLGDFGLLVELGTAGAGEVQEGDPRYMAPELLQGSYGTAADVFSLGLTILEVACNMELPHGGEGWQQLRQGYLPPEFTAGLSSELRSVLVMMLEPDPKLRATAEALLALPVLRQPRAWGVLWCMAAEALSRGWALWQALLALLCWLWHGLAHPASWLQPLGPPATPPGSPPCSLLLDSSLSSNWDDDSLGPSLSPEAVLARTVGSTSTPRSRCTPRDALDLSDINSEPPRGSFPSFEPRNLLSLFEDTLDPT
The inhibition was 89% (U-251 MG; cell growth; 10000 nM).
For U-251 MG; cell growth; 1111.11 nM: inhibition read 65.2%.
It gave 78.5% for inhibition (PKMYT1; 0.01372 µM).
It gave 32.6% for inhibition (PKMYT1; enzyme activity, inhibitor; 4.12 nM).
PKMYT1; 0.00137 µM — inhibition: 5.68% and 13.7%.
MKN-1; cell proliferation; 1111.11 nM — inhibition: 99.3%.
It gave 1.15% and -1.75% for inhibition (PKMYT1; 0.00046 µM).
The inhibition was 98.4% (HCC1806; cell proliferation; 3333.33 nM).
MKN-1; cell proliferation; 1.524 nM — inhibition: -6.6% and -3.38% and -4.95%.
It gave -0.93% and -3.34% and -3.86% for inhibition (KLE; cell proliferation; 4.572 nM).
PKMYT1; 10 µM — inhibition: 97.6%.
For RKO; cell proliferation; 41.15 nM: inhibition read 1.71% and -1.2%.

Single results of other studies
KRAS G12D GDP-bound: GTPase KRas, GDP-bound (KRAS, Homo sapiens, UniProt P01116, G12D)
For `Cc1ncsc1-c1ccc(C(CO)NC(=O)C2CC(O)CN2C(=O)C(NC(=O)c2ccc(COc3c(-c4c(C)c(F)cc5[nH]ncc45)c(C4CC4)cc4c(N5CC6CC5CN6)nc(OC5CCOCC5)nc34)cc2)C(C)C)cc1` (stereo not shown), the kon was 575000 M⁻¹ s⁻¹ and 451000 M⁻¹ s⁻¹ (KRAS G12D GDP-bound; SPR, single-cycle; immobilized KRAS G12D; binary).
`Cc1ncsc1-c1ccc(C2(NC(=O)C3CC(O)CN3C(=O)C(NC(=O)c3ccc(COc4c(-c5c(C)c(F)cc6[nH]ncc56)c(C5CC5)cc5c(N6CC7CC6CN7)nc(OC6CCOCC6)nc45)cc3)C(C)C)CC2)cc1` (stereo not shown) has a kon of 157000 M⁻¹ s⁻¹ and 212000 M⁻¹ s⁻¹ (KRAS G12D GDP-bound; SPR, single-cycle; immobilized KRAS G12D; binary).
`Cc1ncsc1-c1ccc(C(CO)NC(=O)C2CC(O)CN2C(=O)C(C(C)C)n2cc(-c3ccc(COc4c(-c5c(C)c(F)cc6[nH]ncc56)c(C5CC5)cc5c(N6CC7CC6CN7)nc(OC6CCOCC6)nc45)cc3)nn2)cc1` (stereo not shown) has a kon of 275000 M⁻¹ s⁻¹ (von Hippel-Lindau disease tumor suppressor, with Elongin B/C (VHL, Homo sapiens, UniProt P40337); SPR, single-cycle; immobilized VCB complex; binary, geometric mean).
For `Cc1ncsc1-c1ccc(C2(NC(=O)C3CC(O)CN3C(=O)C(NC(=O)c3ccc(COc4c(-c5c(C)c(F)cc6[nH]ncc56)c(C5CC5)cc5c(N6CC7CC6CN7)nc(OC6CCOCC6)nc45)cc3)C(C)(C)C)CC2)cc1` (stereo not shown), the phospho-ERK1/2 level was 101% and 99.1% and 89.2% and 105% (AsPC-1; in-cell ELISA; 300 pM, individual replicates).
